Measured values pooled from the literature.
Protocols differ between the studies behind these lines.
Cell line: TK-10

Cn1cncc1C1=CN(c2ncnc3[nH]cnc23)CCS1
GI50 (renal cancer): 6.8 µM

S=C([S][Au-][P+](CCCCCC[P+]([Au-][S]C(=S)n1cccn1)(c1ccccc1)c1ccccc1)(c1ccccc1)c1ccccc1)n1cccn1
log10 TGI (cell growth, NCI-60 screen; renal cancer): > -4

CCCCN1CCN(c2ccc3nc(-c4ccc5nc(-c6cc(OC)ccc6OC)[nH]c5c4)[nH]c3c2)CC1
growth percent (SRB; 10 µM, 48 h): 118%

CCN(CC)c1ccc(C=NNC(=O)CSc2nc3ccccc3c(=O)n2Cc2ccc(S(N)(=O)=O)cc2)c(O)c1
TGI (NCI five-dose screen): > 100 µM

O=C(Nc1nnc2n3c(Cc4ccccc4)n[nH]c3nc(-c3ccc(Cl)cc3)c1-2)c1ccccc1
cell growth (SRB; 10 µM, NCI60 single-dose screen; relative to: untreated): 120%

CCCN1CCN(c2ccc3nc(-c4ccc5nc(-c6cc(OC)ccc6OC)[nH]c5c4)[nH]c3c2)CC1
growth percent (SRB; 10 µM, 48 h): 118%

Cc1n[nH]c2nc(-c3ccc(Cl)cc3)c3c(NC(=O)c4ccccc4)nnc-3n12
cell growth (SRB; 10 µM, NCI60 single-dose screen; relative to: untreated): 112%

C#C[C@@]1(O)[C@@H](CO)O[C@@H](n2cc(F)c3c(N)ncnc32)[C@@H]1O
TGI (SRB; NCI-60 screen): 6.56 µM

CCCCN1CCN(c2ccc3[nH]c(-c4ccc5[nH]c(-c6ccc(OCC)c(OCC)c6)nc5c4)nc3c2)CC1
growth percent (SRB; 10 µM, 48 h): 57%

O=C1NCCc2[nH]c(-c3ccncc3)cc21
IC50 (MTS; NCI60 panel): > 10 µM

Cc1cc(-c2ccccc2)n(-c2nc(-c3ccc(Cl)cc3)c3c(NC(=O)c4ccccc4)nnc-3[nH]2)n1
cell growth (SRB; 10 µM, NCI60 single-dose screen; relative to: untreated): 102%

CCOc1ccc(-c2nc3cc(-c4nc5cc(N6CCN(C)CC6)ccc5[nH]4)ccc3[nH]2)cc1OCC
growth percent (SRB; 10 µM, 48 h): 91%

Cc1cc(C)n(-c2nc(-c3ccc(Cl)cc3)c3c(NC(=O)c4ccccc4)nnc-3[nH]2)n1
cell growth (SRB; 10 µM, NCI60 single-dose screen; relative to: untreated): 115%

CCCCN1CCN(c2ccc3[nH]c(-c4ccc5[nH]c(-c6ccc(C(F)(F)F)cc6)nc5c4)nc3c2)CC1
growth percent (SRB; 10 µM, 48 h): -71.3%

C#C[C@@]1(O)[C@@H](CO)O[C@@H](n2ccc3c(N)ncnc32)[C@@H]1O
TGI (SRB; NCI-60 screen): 9.48 µM
